Measured values pooled from the literature.
Lines come from different studies, so protocols differ. Values joined by “and” are separate records of one study, mostly repeats; a detail may differ. Numbers after ± are the reported error.

| SMILES | target or system | assay | test system | setting | how to read | measurement | value |
| --- | --- | --- | --- | --- | --- | --- | --- |
| CCOC(=O)c1cc(Cl)cc(NC(=O)c2sc(Cl)cc2S(=O)(=O)N(C)c2ccc(OCC)c(OC)c2)c1 | primary mouse glial cells | qPCR, item: ABCG1 |  | concentration not given, 24 h |  | mRNA level | increased |
| COc1ccc(Oc2cc(NCCC(F)(F)F)c3ncc(-c4ccc(C(=O)NC5CC5)c(C)c4)n3n2)c(F)c1F | HEK293T ATF4-FLuc reporter | ATF4 reporter gene, activator, luciferase reporter |  |  |  | EC50 | 1.71 µM |
| Cc1cnc2ccc3c(c2n1)N1CCC(O)N=C1N3C (centres unmarked) | BALB/c 3T3 | colony forming efficiency |  | 0.1 µM |  | colony number | 100 colonies per plate and 105 colonies per plate and 104 colonies per plate |
| Cc1cc(Nc2ncc(Cl)c(Nc3ccccc3S(=O)(=O)C(C)C)n2)c(OC(C)C)cc1C1CCNCC1 | CLB-BAR | phosphoproteomics LC-MS/MS, item: AKT3 phosphorylation |  | 200 nM, 60 min | reference: untreated | log2 fold change | -4.34 |
| O=C1c2ccccc2C(=O)c2c1ccc(O)c2O | THP-1 | pyroptotic LDH release |  | 2 µM, 40 min, added: LPS then nigericin |  | inhibition | -19.1% |
| CC(C)n1ncc2c(C(=O)NCC3(C)CNC3)cc(C3CC3)nc21 | coxsackievirus A6 | CPE | RD | 0.15 µM |  | cell protection | 8.71% and 11.2% |
| CN(C)C/C=C/C(=O)Nc1cc2c(Nc3ccc(F)c(Cl)c3)ncnc2cc1C#C[C@@H]1[C@H]2COC[C@@H]12 | HEK293T ATF4-FLuc reporter | ATF4 reporter gene, activator, luciferase reporter |  |  |  | EC50 | 1.67 µM |
| CC(N)C12CC3CC(CC(C3)C1)C2 (centres unmarked) | THP-1 | pyroptotic LDH release |  | 2 µM, 40 min, added: LPS then nigericin |  | inhibition | -19% |
| CC(C)C[C@H](NC(=O)[C@@H](NC(=O)c1cccc(-c2ccccc2)n1)[C@@H](C)O)B(O)O | HEK293T ATF4-FLuc reporter | ATF4 reporter gene, activator, luciferase reporter |  |  |  | EC50 | 0.0773 µM |
| CCn1cc(-c2cc(Cn3ccnc3)cc3c2CCN([C@H](c2cc(OC)ccn2)C2CC2)C3=O)c(C(F)(F)F)n1 | MDST8 | cell growth, inhibitor |  | 120 h |  | EC50 | > 30 µM |
| O=C(O)Cc1cccnc1 | THP-1 | pyroptotic LDH release |  | 2 µM, 40 min, added: LPS then nigericin |  | inhibition | 8.62% |
| CCCN1CCN(c2ccc3[nH]c(-c4ccc5[nH]c(-c6ccc(OCC)c(OCC)c6)nc5c4)nc3c2)CC1 | RXF 393 | SRB |  | 10 µM, 48 h |  | growth percent | -92.3% |
| O=C(O)c1cc(O)c(O)c(O)c1 | Caco-2/THP-1 co-culture | TEER |  | 0.5 µg/mL, added: LPS 500 ng/mL | reference: control | transepithelial electrical resistance | 88.4 ± 5.7% |
| CC(=O)c1c(C)cc2cc(O)cc(O[C@@H]3O[C@H](CO)[C@@H](O)[C@H](O)[C@H]3O)c2c1O | HK-2 co-cultured with HepaRG | MTT |  | 133.33 µM, 48 h | reference: untreated control | cell viability | 96 ± 5.99% |
| CC(=O)[C@@]1(C)CC[C@H]2[C@@H]3C=C(C)C4=CC(=O)CC[C@]4(C)[C@H]3CC[C@@]21C | HEK293T ATF4-FLuc reporter | ATF4 reporter gene, activator, luciferase reporter |  |  |  | EC50 | > 9.96 µM |
| O=C(C[C@@H](C(F)F)n1ccc(F)n1)N1CCC(O)(Cn2cnc3c(cnn3-c3ccc(F)cc3)c2=O)CC1 | CHP-212 parental | annexin V/PI flow cytometry |  | 0.3 µM, 48 h |  | early apoptotic cells | 25.6% and 28.6% and 29% |

| SMILES | target or system | assay | test system | setting | how to read | measurement | value |
| --- | --- | --- | --- | --- | --- | --- | --- |
| COc1cc2ncnc(Nc3ccc(F)c(Cl)c3)c2cc1NC(=O)/C=C/CN1CCCCC1 | HEK293T ATF4-FLuc reporter | ATF4 reporter gene, activator, luciferase reporter |  |  |  | EC50 | > 9.96 µM |
| CC(=O)NCC(=O)O | THP-1 | pyroptotic LDH release |  | 2 µM, 40 min, added: LPS then nigericin |  | inhibition | 12% |
| COc1cnc2cccc(N3CCc4c(cc(Cn5ccnc5C)cc4-c4cn(C)nc4C(F)(F)F)C3=O)c2c1 | COLO792 | cell growth |  | 120 h |  | EC50 | > 30 µM |
| C#Cc1cccc(Nc2ncnc3cc(OC)c(OCCCCCCC(=O)NO)cc23)c1 | HEK293T ATF4-FLuc reporter | ATF4 reporter gene, activator, luciferase reporter |  |  |  | EC50 | 0.359 µM |
| C#C[C@]1(O)CC[C@H]2[C@@H]3CCC4=CCCC[C@@H]4[C@H]3C(=C)C[C@@]21CC | THP-1 | pyroptotic LDH release |  | 2 µM, 40 min, added: LPS then nigericin |  | inhibition | -8.95% |
| CCCCc1nc2cc(/C=C/C(=O)NO)ccc2n1CCN(CC)CC | HEK293T ATF4-FLuc reporter | ATF4 reporter gene, activator, luciferase reporter |  |  |  | EC50 | 0.447 µM |
| O=C(/C=C/C=C/C=C/C1CCCCC1)NC1=C[C@@](O)(/C=C/C=C/C=C/C(=O)NC2=C(O)CCC2=O)[C@@H]2O[C@@H]2C1=O | HCC38 | cell growth, CellTiter-Glo |  | 78 h |  | GI50 | 16.8 µM |
| C=CC(=O)Nc1cc(Nc2ncc(C(=O)OC(C)C)c(-c3cn(C)c4ccccc34)n2)c(OC)cc1N(C)CCN(C)C | NCI-H2073 EGFR SVD knock-in | cell proliferation, CellTiter-Glo |  |  | reference: knock-in over parental NCI-H2073 | selectivity ratio | 0.7 |
| NS(=O)(=O)c1ccc(Oc2ccc(NC(=O)N[C@@H]3[C@@H]4COc5c(F)ccc(F)c5[C@@H]43)nc2)cc1 | HEK293T ATF4-FLuc reporter | ATF4 reporter gene, activator, luciferase reporter |  |  |  | EC50 | > 9.96 µM |
| Cc1cc(C)cc(OCC2CNC(=O)O2)c1 (centres unmarked) | THP-1 | pyroptotic LDH release |  | 2 µM, 40 min, added: LPS then nigericin |  | inhibition | 1.91% |
| COc1cc(O)c2c(=O)c(O)c(-c3ccc(O)c(O)c3)oc2c1 | coculture, Caco-2, THP-1 | ELISA |  | 250 ng/mL, 8 h, added: LPS, IFNγ, ATP | reference: untreated control | IL-1β level | 5 ± 1 fold change |
| CCn1cc(-c2cc(Cn3ccoc3=N)cc3c2CCN([C@@H](C)c2cc(OC)ccn2)C3=O)c(C(F)(F)F)n1 | COV434 | cell growth, inhibitor |  | 120 h |  | EC50 | 0.241 µM |
| C[C@H](CS)C(=O)N1CCC[C@H]1C(=O)O | THP-1 | pyroptotic LDH release |  | 2 µM, 40 min, added: LPS then nigericin |  | inhibition | -19.9% |
| Cn1cc(-c2ccc(-c3cncc(Cl)c3N3CCC4(CCNC4=O)CC3)cc2)cn1 | COLO 205 | gene expression, microarray, item: HSPA5 (GRP78) mRNA |  | concentration not given, 2 h | reference: untreated cells | log2 fold change | 1.77 |
| CCCCOc1ccc(C(=O)CCN2CCCCC2)cc1 | THP-1 | pyroptotic LDH release |  | 2 µM, 40 min, added: LPS then nigericin |  | inhibition | -9.83% |
| COc1cc2c(c(O)c1OC)C(=O)c1c(cc(C)c(O)c1OC)C2=O | HK-2 co-cultured with HepaRG | MTT |  | 133.33 µM, 48 h | reference: untreated control | cell viability | 34.1 ± 1.43% |

Excerpt of the above:
| SMILES | target or system | assay | test system | setting | how to read | measurement | value |
| --- | --- | --- | --- | --- | --- | --- | --- |
| NS(=O)(=O)c1ccc(Oc2ccc(NC(=O)N[C@@H]3[C@@H]4COc5c(F)ccc(F)c5[C@@H]43)nc2)cc1 | HEK293T ATF4-FLuc reporter | ATF4 reporter gene, activator, luciferase reporter |  |  |  | EC50 | > 9.96 µM |
| C=CC(=O)Nc1cc(Nc2ncc(C(=O)OC(C)C)c(-c3cn(C)c4ccccc34)n2)c(OC)cc1N(C)CCN(C)C | NCI-H2073 EGFR SVD knock-in | cell proliferation, CellTiter-Glo |  |  | reference: knock-in over parental NCI-H2073 | selectivity ratio | 0.7 |
| COc1cc(O)c2c(=O)c(O)c(-c3ccc(O)c(O)c3)oc2c1 | coculture, Caco-2, THP-1 | ELISA |  | 250 ng/mL, 8 h, added: LPS, IFNγ, ATP | reference: untreated control | IL-1β level | 5 ± 1 fold change |
| Cc1cc(Nc2ncc(Cl)c(Nc3ccccc3S(=O)(=O)C(C)C)n2)c(OC(C)C)cc1C1CCNCC1 | CLB-BAR | phosphoproteomics LC-MS/MS, item: AKT3 phosphorylation |  | 200 nM, 60 min | reference: untreated | log2 fold change | -4.34 |
| O=C(/C=C/C=C/C=C/C1CCCCC1)NC1=C[C@@](O)(/C=C/C=C/C=C/C(=O)NC2=C(O)CCC2=O)[C@@H]2O[C@@H]2C1=O | HCC38 | cell growth, CellTiter-Glo |  | 78 h |  | GI50 | 16.8 µM |
